# Results pooled from the literature.
# Several values in a cell are separate wells, animals, samples, runs or records. Numbers after ± are the reported error.
# rep main protease: Replicase polyprotein 1ab, main protease (rep, Severe acute respiratory syndrome coronavirus 2, UniProt P0DTD1)
# PA: Polymerase acidic protein (PA, Influenza A virus, UniProt C3W5S0)
# SLC6A2: Sodium-dependent noradrenaline transporter (SLC6A2, Homo sapiens, UniProt P23975)
# SLC6A3: Sodium-dependent dopamine transporter (SLC6A3, Homo sapiens, UniProt Q01959)
SMILES,target,test,system,setting,IC50
"C=CCN1CCC2(C)c3cc(O)ccc3CC1C2C (single isomer, unassigned; (+))","Tmem97 (Mus musculus, UniProt Q8VD00)","ligand displacement, radioligand",,"pH 8, cell membranes",20800 nM
N=C(N)NCCC[C@H](NC(=O)[C@H](Cc1ccccc1)NC(=O)[C@H](N)Cc1ccccc1)C(=O)CCl,rep main protease,"enzyme activity, inhibitor",,,100 nM
CN1[C@H]2CC[C@@H]1[C@@H](C(=O)Oc1ccccc1)[C@@H](c1ccc(Cl)cc1)C2,"Sodium-dependent noradrenaline transporter (Mus musculus, UniProt O55192)","transporter uptake, inhibitor, radiometric",,,170 nM
O=c1[nH]c(Cc2cccc3ccccc23)c(-c2ccc(-c3nnn[nH]3)cc2)cc1O,PA,"enzyme activity, inhibitor, fluorescence",,,15 nM
CCC1CC2CC3c4c(c5cc(O)ccc5n4CC)CCN(C2)C13 (stereo not shown),"Slc18a2 (Rattus norvegicus, UniProt Q01827)","[3H]5-HT uptake, inhibitor",rat brain synaptic vesicles,added: [3H]5-HT,54.3 ± 6.4 nM
c1ccc(CCCN2CCN(CCOC(c3ccccc3)c3ccccc3)CC2)cc1,"Equilibrative nucleoside transporter 4 (Slc29a4, Mus musculus, UniProt Q8R139)",,,pH 7.4,62800 ± 4500 nM
CCCCC/C=C\C/C=C\C/C=C\C/C=C\CCCC(=O)OCCN,"MAOB (Homo sapiens, UniProt P27338)",inhibitor,,added: kynuramine 50 µM,700 nM
[H]/N=C(\N/C(=N/[H])NCCCCCCNC(=N)NC(=N)Nc1ccc(Cl)cc1)Nc1ccc(Cl)cc1,"eis (Mycobacterium tuberculosis, UniProt P9WFK7)","enzyme activity, inhibitor",,,188 ± 30 nM
CCCCC/C=C\C/C=C\C/C=C\C/C=C\CCCC(=O)OCCN,"GPR55 (Homo sapiens, UniProt Q9Y2T6)","β-arrestin2 recruitment, antagonist",U2OS HA-GPR55/βarr2-GFP,"40 min, added: LPI 3 µM",6570 nM
CCCCCc1cc(O)c2c(c1)OC(C)(C)c1ccc(C)cc1-2,"UGT1A9 (Homo sapiens, UniProt O60656)",inhibitor,"HEK293 overexpressing UGT1A9, recombinant UGT1A9 microsomes","pH 7.4, added: acetaminophen glucuronidation",590 ± 46 nM
CC(NC(C)(C)C)C(=O)c1cccc(Cl)c1 (stereo not shown),"Dopamine transporter (Schistosoma mansoni, UniProt E9LD23)",,,,242000 ± 36000 nM
CCCC(C(=O)c1ccc(O)c(OC)c1)N1CCCC1 (stereo not shown),SLC6A2,"transporter uptake, inhibitor",,,1700 nM
CNC(C)Cc1ccc2c(c1)OCO2 (stereo not shown),SLC6A3,"transporter uptake, inhibitor, radiometric",,,479 nM
CNC(C)Cc1ccc(O)c(O)c1 (stereo not shown),SLC6A3,"transporter uptake, inhibitor, radiometric",,,9800 nM
CCOC(=O)C=CC(CC1CCNC1=O)NC(=O)C(Cc1ccccc1)NC(=O)C(N)Cc1ccccc1 (stereo not shown),rep main protease,"enzyme activity, inhibitor",,,900 nM
CN=c1nc(-c2ccccc2)n(-c2ccccc2)s1,"4'-phosphopantetheinyl transferase PptT (Mycobacterium tuberculosis, UniProt O33336)","enzyme activity, inhibitor",,,800 nM
C[C@@H]1C[C@H]2CC(=O)CC[C@@H]2[C@@H]2[C@@H]1[C@@H]1CC[C@H](O)[C@@]1(C)C[C@@H]2C,"Androgen receptor (Ar, Rattus norvegicus, UniProt P15207)","ligand displacement, radioligand",,,5.5 nM
CCC(C(=O)c1ccc2c(c1)OCO2)N(C)C (stereo not shown),SLC6A3,"transporter uptake, inhibitor, radiometric",,,302 nM
O=c1[nH]c(-c2cccc3ccccc23)c(-c2ccc(-c3nnn[nH]3)cc2)cc1O,PA,"enzyme activity, inhibitor, fluorescence",,,18 nM
COc1ccc2c3c([nH]c2c1)C(C)=NCC3,"SLC22A2 (Homo sapiens, UniProt O15244)","transporter uptake, inhibitor, fluorescence",,,500 nM and 497 nM and ~500 nM
CC(C)c1cccc(C(C)C)c1O,"Proton-gated ion channel (glvI, Gloeobacter violaceus, UniProt Q7NDN8)",,,pH 5.5,510 nM and 500 nM
NC(=O)NCCC[C@H](NC(=O)[C@H](Cc1ccccc1)NC(=O)[C@H](N)Cc1ccccc1)C(=O)CCl,rep main protease,"enzyme activity, inhibitor",,,130 nM
CNC(C)C(=O)c1cccc(C)c1 (stereo not shown),SLC6A3,"transporter uptake, inhibitor, radiometric",,,433 nM
COc1cc(/C=C(\C#N)C(=O)c2ccc(O)c(O)c2)cc(I)c1O,"Pup deamidase/depupylase (dop, Mycolicibacterium smegmatis, UniProt A0QZ49)","enzyme activity, inhibitor",,5 min preincubation,470 ± 50 nM
O=c1[nH]c(-c2ccc(-c3nnn[nH]3)cc2)c(Cc2ccc3ccccc3c2)cc1O,PA,"enzyme activity, inhibitor, fluorescence",,,81 nM
O=c1[nH]c2ccccc2n1C1CCN(CCCC(c2ccc(F)cc2)c2ccc(F)cc2)CC1,"Voltage-dependent P/Q-type calcium channel subunit alpha-1A, with β4/α2δ1 (Homo sapiens, UniProt O00555)","calcium current, blocker, automated patch clamp",holding potential -90 mV,"last pulse of train, added: 0.1 Hz pulse train",> 30000 nM
CCCC(C(=O)c1ccc(O)c(O)c1)N1CCCC1 (stereo not shown),SLC6A2,"transporter uptake, inhibitor",,,24 nM
CCCn1c(C)c(C(=O)c2cccc3ccccc23)c2ccccc21,"KCNK18 (Homo sapiens, UniProt Q7Z418)","ion flux, inhibitor",,,5470 nM
O=c1c2ccccc2[se]n1C12CC3CC(CC(C3)C1)C2,"fbpC (Mycobacterium tuberculosis, UniProt P9WQN9)","enzyme activity, inhibitor",,"15 min, room temperature, added: resorufin butyrate",25000 nM
CCCCC/C=C\C/C=C\C/C=C\C/C=C\CCCC(=O)N[C@H](C)CO,"MAOA (Homo sapiens, UniProt P21397)","enzyme activity, inhibitor, fluorescence",,,> 100000 nM
CCC(CC)O[C@@H]1C=C(C(=O)O)C[C@H](N)[C@H]1NC(C)=O,"Sialidase A (nanA, Streptococcus pneumoniae, UniProt P62575)","neuraminidase activity, inhibitor",total protein of pneumococcal strains,mean of nine strains,1400 nM

# Excerpt of the above:
SMILES,target,test,system,setting,IC50
CNC(C)Cc1ccc2c(c1)OCO2 (stereo not shown),SLC6A3,"transporter uptake, inhibitor, radiometric",,,479 nM
CNC(C)C(=O)c1cccc(C)c1 (stereo not shown),SLC6A3,"transporter uptake, inhibitor, radiometric",,,433 nM
